Experimental data from different studies.
Each line is one published result; not all experiments were run side by side. ± gives the spread as reported.
CYP2C19: Cytochrome P450 2C19 (CYP2C19, Homo sapiens, UniProt P33261)
DPP4: Dipeptidyl peptidase 4 (DPP4, Homo sapiens, UniProt P27487)
Chain of UniProt P27487 (whole entry, looked up): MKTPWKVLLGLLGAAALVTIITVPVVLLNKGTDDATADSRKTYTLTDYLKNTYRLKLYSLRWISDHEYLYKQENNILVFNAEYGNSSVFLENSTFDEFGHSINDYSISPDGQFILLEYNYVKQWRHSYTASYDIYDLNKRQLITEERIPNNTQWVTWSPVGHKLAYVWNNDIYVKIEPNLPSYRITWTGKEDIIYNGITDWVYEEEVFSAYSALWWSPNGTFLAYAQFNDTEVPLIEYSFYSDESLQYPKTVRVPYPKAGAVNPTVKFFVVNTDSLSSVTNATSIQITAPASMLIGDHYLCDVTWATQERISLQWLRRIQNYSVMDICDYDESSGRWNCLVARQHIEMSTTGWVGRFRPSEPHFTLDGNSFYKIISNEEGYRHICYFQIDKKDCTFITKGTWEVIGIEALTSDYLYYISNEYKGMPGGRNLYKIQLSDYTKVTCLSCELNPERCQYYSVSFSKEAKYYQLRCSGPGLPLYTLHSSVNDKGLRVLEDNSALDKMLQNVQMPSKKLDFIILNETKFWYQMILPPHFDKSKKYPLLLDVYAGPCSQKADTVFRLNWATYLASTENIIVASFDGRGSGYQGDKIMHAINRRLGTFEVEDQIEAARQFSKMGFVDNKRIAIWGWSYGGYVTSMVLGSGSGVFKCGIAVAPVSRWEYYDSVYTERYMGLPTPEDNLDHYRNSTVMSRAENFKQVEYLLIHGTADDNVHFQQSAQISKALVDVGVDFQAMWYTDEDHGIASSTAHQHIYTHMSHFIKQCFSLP
ABCB1: ATP-dependent translocase ABCB1 (ABCB1, Homo sapiens, UniProt P08183)
Chain of UniProt P08183 (whole entry, looked up): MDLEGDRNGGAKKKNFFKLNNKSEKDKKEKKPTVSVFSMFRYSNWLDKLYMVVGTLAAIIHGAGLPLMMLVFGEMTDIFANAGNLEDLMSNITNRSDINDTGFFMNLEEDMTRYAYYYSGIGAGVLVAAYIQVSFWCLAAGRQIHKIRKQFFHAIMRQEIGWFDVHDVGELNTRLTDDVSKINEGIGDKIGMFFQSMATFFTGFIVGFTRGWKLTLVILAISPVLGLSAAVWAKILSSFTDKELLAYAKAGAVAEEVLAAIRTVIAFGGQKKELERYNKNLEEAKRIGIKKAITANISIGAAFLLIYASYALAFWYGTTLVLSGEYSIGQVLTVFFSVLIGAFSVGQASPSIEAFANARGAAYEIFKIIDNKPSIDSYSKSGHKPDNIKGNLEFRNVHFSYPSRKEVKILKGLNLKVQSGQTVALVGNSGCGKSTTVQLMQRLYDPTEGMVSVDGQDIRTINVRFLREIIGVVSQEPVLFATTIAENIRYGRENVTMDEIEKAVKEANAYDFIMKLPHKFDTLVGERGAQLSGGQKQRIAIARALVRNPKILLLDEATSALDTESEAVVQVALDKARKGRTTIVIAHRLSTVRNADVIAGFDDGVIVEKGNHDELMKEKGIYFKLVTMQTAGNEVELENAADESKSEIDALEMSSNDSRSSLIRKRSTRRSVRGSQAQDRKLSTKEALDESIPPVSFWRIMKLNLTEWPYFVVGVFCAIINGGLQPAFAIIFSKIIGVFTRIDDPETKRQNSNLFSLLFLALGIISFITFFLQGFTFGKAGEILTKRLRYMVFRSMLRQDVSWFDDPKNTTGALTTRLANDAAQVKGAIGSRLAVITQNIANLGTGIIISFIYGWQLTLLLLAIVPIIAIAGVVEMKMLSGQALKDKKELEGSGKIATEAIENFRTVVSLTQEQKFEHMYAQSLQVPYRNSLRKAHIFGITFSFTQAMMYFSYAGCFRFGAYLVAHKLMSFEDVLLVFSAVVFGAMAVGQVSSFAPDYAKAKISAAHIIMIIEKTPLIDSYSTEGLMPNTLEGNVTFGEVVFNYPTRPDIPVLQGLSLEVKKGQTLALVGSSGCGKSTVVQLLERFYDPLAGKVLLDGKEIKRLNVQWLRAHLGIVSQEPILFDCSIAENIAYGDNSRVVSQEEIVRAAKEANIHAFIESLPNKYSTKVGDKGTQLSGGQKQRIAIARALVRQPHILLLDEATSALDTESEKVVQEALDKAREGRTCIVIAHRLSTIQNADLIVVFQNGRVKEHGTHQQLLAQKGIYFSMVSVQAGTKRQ
CYP2C8: Cytochrome P450 2C8 (CYP2C8, Homo sapiens, UniProt P10632)
Chain of UniProt P10632 (whole entry, looked up): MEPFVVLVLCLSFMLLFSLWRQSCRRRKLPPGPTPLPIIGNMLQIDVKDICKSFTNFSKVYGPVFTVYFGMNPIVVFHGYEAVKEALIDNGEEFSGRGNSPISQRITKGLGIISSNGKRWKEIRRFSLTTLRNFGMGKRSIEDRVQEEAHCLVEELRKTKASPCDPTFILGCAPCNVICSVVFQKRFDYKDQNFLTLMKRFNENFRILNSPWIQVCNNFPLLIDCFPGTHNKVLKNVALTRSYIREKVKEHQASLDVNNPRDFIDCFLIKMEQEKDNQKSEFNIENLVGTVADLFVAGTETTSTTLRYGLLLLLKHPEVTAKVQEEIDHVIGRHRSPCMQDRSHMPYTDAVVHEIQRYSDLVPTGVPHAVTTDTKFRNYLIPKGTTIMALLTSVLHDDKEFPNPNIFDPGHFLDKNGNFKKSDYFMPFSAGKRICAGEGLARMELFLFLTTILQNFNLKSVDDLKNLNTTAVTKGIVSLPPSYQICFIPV
Chain of UniProt P29323 (whole entry, looked up): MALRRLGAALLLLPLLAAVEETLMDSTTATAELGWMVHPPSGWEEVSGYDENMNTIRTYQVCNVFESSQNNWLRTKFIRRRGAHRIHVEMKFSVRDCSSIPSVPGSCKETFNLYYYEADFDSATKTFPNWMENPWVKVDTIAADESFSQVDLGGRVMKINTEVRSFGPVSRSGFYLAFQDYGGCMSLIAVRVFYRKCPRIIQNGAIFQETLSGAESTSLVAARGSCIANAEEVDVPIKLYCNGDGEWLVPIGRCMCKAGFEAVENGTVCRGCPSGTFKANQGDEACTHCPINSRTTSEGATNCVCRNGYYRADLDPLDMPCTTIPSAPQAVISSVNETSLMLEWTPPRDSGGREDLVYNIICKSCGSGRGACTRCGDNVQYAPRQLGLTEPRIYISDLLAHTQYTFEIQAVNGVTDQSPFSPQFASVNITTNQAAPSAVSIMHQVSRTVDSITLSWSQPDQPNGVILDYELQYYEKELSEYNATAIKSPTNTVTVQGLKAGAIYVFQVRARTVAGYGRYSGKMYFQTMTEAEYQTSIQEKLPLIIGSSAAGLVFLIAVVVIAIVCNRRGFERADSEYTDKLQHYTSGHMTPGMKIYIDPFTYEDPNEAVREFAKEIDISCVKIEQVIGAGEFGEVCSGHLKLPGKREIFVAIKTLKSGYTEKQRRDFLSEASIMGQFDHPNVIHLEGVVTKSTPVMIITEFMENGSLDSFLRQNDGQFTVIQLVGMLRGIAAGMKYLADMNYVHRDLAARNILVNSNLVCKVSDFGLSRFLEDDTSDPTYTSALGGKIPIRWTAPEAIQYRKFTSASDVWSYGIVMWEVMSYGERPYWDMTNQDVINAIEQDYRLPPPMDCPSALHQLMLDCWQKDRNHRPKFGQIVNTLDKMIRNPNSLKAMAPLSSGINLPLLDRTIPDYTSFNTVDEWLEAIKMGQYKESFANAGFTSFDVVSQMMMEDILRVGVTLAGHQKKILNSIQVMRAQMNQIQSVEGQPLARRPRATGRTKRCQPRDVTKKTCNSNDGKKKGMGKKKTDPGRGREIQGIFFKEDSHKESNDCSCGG
Chain of UniProt P11712 (whole entry, looked up): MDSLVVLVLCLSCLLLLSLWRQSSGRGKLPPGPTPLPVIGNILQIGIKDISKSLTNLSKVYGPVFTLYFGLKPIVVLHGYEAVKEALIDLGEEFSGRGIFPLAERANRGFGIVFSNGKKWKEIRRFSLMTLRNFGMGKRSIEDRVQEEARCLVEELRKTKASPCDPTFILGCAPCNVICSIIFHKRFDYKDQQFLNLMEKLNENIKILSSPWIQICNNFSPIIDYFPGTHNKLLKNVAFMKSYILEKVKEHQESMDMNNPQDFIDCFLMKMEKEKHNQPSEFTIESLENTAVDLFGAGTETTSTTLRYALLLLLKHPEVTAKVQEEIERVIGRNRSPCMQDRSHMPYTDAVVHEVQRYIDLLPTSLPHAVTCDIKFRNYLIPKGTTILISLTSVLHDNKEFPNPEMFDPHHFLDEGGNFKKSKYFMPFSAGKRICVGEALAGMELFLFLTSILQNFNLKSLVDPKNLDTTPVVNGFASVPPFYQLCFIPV
Chain of UniProt P23443 (whole entry, looked up): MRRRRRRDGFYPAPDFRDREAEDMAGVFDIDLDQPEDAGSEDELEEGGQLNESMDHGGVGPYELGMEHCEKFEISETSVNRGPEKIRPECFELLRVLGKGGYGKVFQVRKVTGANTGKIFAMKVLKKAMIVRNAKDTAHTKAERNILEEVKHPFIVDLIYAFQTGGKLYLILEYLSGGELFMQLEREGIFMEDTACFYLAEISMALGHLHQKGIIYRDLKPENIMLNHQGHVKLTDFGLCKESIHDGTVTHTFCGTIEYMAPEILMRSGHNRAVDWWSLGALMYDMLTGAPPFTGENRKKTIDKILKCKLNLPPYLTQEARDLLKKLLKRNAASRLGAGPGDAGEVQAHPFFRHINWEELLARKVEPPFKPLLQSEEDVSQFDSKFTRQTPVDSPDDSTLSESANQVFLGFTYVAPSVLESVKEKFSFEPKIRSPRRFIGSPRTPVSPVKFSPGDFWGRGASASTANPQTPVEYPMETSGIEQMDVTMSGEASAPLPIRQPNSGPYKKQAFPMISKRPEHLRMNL

For `CCN(CC)CCOc1ccc(-c2nnn(Cc3ccc(OC)cc3)c2N)cc1`, the inhibition was 1.4% (CYP2C19; CYP phenotyping; concentration not given).
With `CS(C)(=O)=Nc1ccc(-c2ccc(-c3nc4cc(O[C@@H]5CO[C@H]6[C@@H]5OC[C@H]6O)[nH]c4cc3F)cc2)cc1` the inhibition was -4% (INSRR (Homo sapiens, UniProt P14616); enzyme activity, inhibitor; 10 µM).
The remaining peptide of `CC[C@H](C)[C@H](NC(=O)[C@H](Cc1ccccc1)NC(=O)[C@H](CCC(=O)O)NC(=O)[C@H](CCCCN)NC(=O)[C@H](C)NC(=O)[C@H](C)NC(=O)[C@H](CCC(N)=O)NC(=O)CNC(=O)[C@H](CCC(=O)O)NC(=O)[C@H](CC(C)C)NC(=O)[C@H](Cc1ccc(O)cc1)NC(=O)[C@H](CO)NC(=O)[C@H](CO)NC(=O)[C@@H](NC(=O)[C@H](CC(=O)O)NC(=O)[C@H](CO)NC(=O)[C@@H](NC(=O)[C@H](Cc1ccccc1)NC(=O)[C@@H](NC(=O)CNC(=O)N(CCC(=O)O)NC(=O)[C@H](C)NC(=O)N(N)Cc1c[nH]cn1)[C@@H](C)O)[C@@H](C)O)C(C)C)C(=O)N[C@@H](C)C(=O)N[C@@H](Cc1c[nH]c2ccccc12)C(=O)N[C@@H](CC(C)C)C(=O)N[C@H](C(=O)N[C@@H](CCCNC(=N)N)C(=O)NCC(=O)N[C@@H](CCCNC(=N)N)C(=O)NCC(=O)O)C(C)C` is reported as 100% (DPP4; HPLC-UV; Tris-HCl; 0.1 mM, 8 h, pH 7.4, 37 °C, with: DPP4 16 nM).
`C[C@@H](c1ccc2nccn2c1)n1nnc2ncc(-c3cn[nH]c3)nc21` gave an IC50 of over 50 µM (human CYP3A4/5; inhibitor; pooled human liver microsomes; reversible inhibition, with: midazolam substrate).
`CC(C)[C@H]1NC(=O)C[C@H]2/C=C/CCSSC[C@@H](NC1=O)C(=O)N[C@H](Cc1cccc3ccccc13)C(=O)NCC(=O)O2` has an inhibition of 16.8% (RPS6KB1 (Homo sapiens, UniProt P23443); enzyme activity, inhibitor; 10 µM).
With `CNC(=O)C1CCCN(C(=O)C2CC3CCC2N3C(=O)[C@@H]2C[C@@H](O)CN2C(=O)NCc2cccc(Cl)c2F)C1` (mixture of isomers) the remaining activity was 99.9% (CYP3A4 (human); inhibitor, time-dependent inhibition; 0.206 µM, preincubated without NADPH, with: midazolam substrate; relative to: negative control).
`O=C(CN1C(=O)C2(CCN(C(=O)c3ccc4[nH]ncc4c3)CC2)c2ccccc21)NCC(F)(F)F` gave an IC50 of 10 µM (Cytochrome P450 2C9 (CYP2C9, Homo sapiens, UniProt P11712); enzyme activity, inhibitor).
The inhibition of `C[C@H](NCc1ccc(-c2ccc(C(F)(F)F)cc2)cc1)C(N)=O` is reported as 84% (CYP2C19; P450-Glo luminescence; potassium phosphate buffer; 10 µM, pH 7.4, isoform 2C19).
With `CC(C)(C)C(=O)OCOP(=O)(OCOC(=O)C(C)(C)C)C1CCCN(O)C1=O` (stereo not drawn) the TGI was over 100 µM (DU-145).
The inhibition of `CSc1nc2[nH]nc([N+](=O)[O-])c(=O)n2n1` is reported as 58.1% (ABCB1; transport, inhibitor; 100 µM, 5 (unit not given), pH 7, with: NMN).
`COc1ccccc1-c1n[nH]c2nc(NC3CCN(C(=O)Cc4ccc(F)cc4F)CC3)ncc12` gave a relative abundance of 1 (bead binding, competition bead pull-down, measured: LMJF.35.0980; Leishmania donovani axenic amastigote extract; 10 µM; relative to: vehicle).
`CC[C@H](C)[C@H](NC(=O)[C@H](Cc1ccccc1)NC(=O)[C@H](CCC(=O)O)NC(=O)[C@H](CCCCN)NC(=O)[C@H](C)NC(=O)[C@H](C)NC(=O)[C@H](CCC(N)=O)NC(=O)CNC(=O)[C@H](CCC(=O)O)NC(=O)[C@H](CC(C)C)NC(=O)[C@H](Cc1ccc(O)cc1)NC(=O)[C@H](CO)NC(=O)[C@H](CO)NC(=O)[C@@H](NC(=O)[C@H](CC(=O)O)NC(=O)[C@H](CO)NC(=O)[C@@H](NC(=O)[C@H](Cc1ccccc1)NC(=O)[C@@H](NC(=O)CNC(=O)[C@H](CCC(=O)O)NC(=O)[C@H](C)NC(=O)[C@@H](N)Cc1c[nH]cn1)[C@@H](C)O)[C@@H](C)O)C(C)C)C(=O)N[C@@H](C)C(=O)N[C@@H](Cc1c[nH]c2ccccc12)C(=O)N[C@@H](CC(C)C)C(=O)N[C@H](C(=O)N[C@@H](CCCCN)C(=O)NCC(=O)N[C@@H](CCCNC(=N)N)C(=O)NCC(=O)N[C@@H](Cc1ccccc1)C(=O)N[C@@H](Cc1ccccc1)C(=O)NCC(=O)O)C(C)C` gave a remaining peptide of 98% (DPP-4 (recombinant); substrate, LC-MS; 500 µM, 1 h).
The inhibition of `CN(C)[C@H]1C[C@@]23CC[C@@]4(O2)C(=CC[C@]2(C)[C@@H](c5ccc6ccncc6c5)CC[C@H]24)C=C3[C@@H](O)[C@@H]1O` is reported as 1.6% (EPHB2 (Homo sapiens, UniProt P29323); ATP probe labelling, inhibitor, KiNativ profiling; 1 µM).
`Cc1cc(-c2ccc3ccccc3c2)nnc1NCCN1CCN(C)CC1` gave a half-life of over 1 h (CYP2C8; substrate; recombinant enzyme; 100 nM).
`O=C1NC2(CC2)COc2ncc(F)cc2[C@H]2COCCN2c2ccn3ncc1c3n2` — result for “organ-to-brain weight ratio”: 450 ± 66.4% (Sprague-Dawley rat, female, liver; oral, 10 mg/kg/day, 4 weeks dosing, end of recovery).
For `CC[C@H](C)[C@H](NC(=O)[C@H](Cc1ccccc1)NC(=O)[C@H](CCC(=O)O)NC(=O)[C@H](CCCCN)NC(=O)[C@H](C)NC(=O)[C@H](C)NC(=O)[C@H](CCC(N)=O)NC(=O)CNC(=O)[C@H](CCC(=O)O)NC(=O)[C@H](CC(C)C)NC(=O)[C@H](Cc1ccc(O)cc1)NC(=O)[C@H](CO)NC(=O)[C@H](CO)NC(=O)[C@@H](NC(=O)[C@H](CC(=O)O)NC(=O)[C@H](CO)NC(=O)[C@@H](NC(=O)[C@H](Cc1ccccc1)NC(=O)[C@@H](NC(=O)CNC(=O)[C@H](CCC(=O)O)NC(=O)C(C)(C)NC(=O)N(N)Cc1c[nH]cn1)[C@@H](C)O)[C@@H](C)O)C(C)C)C(=O)N[C@@H](C)C(=O)N[C@@H](Cc1c[nH]c2ccccc12)C(=O)N[C@@H](CC(C)C)C(=O)N[C@H](C(=O)N[C@@H](CCCNC(=N)N)C(=O)NCC(=O)N[C@@H](CCCNC(=N)N)C(=O)NCC(=O)O)C(C)C`, the remaining peptide was 100% (DPP4; HPLC-UV; Tris-HCl; 0.1 mM, 8 h, pH 7.4, 37 °C, with: DPP4 16 nM).
`CC(=O)NCCCC[C@@H]1NC(=O)[C@H](Cc2c[nH]c3c(C)cccc23)NC(=O)[C@H]([C@@H](C)O)NC(=O)[C@H](CC(N)=O)NC(=O)[C@@H](NC(C)=O)C(C)(C)SSC(C)(C)[C@@H](C(=O)N[C@@H](Cc2ccc(OCCN)cc2)C(=O)N[C@@H](Cc2ccc3ccccc3c2)C(=O)NC2(C(=O)N[C@@H](CCC(=O)O)C(=O)N[C@@H](CC(N)=O)C(=O)N[C@@H](Cc3cccnc3)C(=O)N(C)CC(N)=O)CCOCC2)NC1=O` gave an efflux ratio of 15.5 (ABCB1; transport, inhibitor; LLC-PK1 expressing MDR1; 300 µM, 90 min, with: [3H]digoxin).
The IC50 of `C[C@@H](c1ccc2nccn2c1)n1nnc2nc(O)c(-c3cnn(C)c3)nc21` is reported as 11 µM (CYP2C8; enzyme activity, inhibitor; human, liver microsomes).

Repeated from above:
For `CC[C@H](C)[C@H](NC(=O)[C@H](Cc1ccccc1)NC(=O)[C@H](CCC(=O)O)NC(=O)[C@H](CCCCN)NC(=O)[C@H](C)NC(=O)[C@H](C)NC(=O)[C@H](CCC(N)=O)NC(=O)CNC(=O)[C@H](CCC(=O)O)NC(=O)[C@H](CC(C)C)NC(=O)[C@H](Cc1ccc(O)cc1)NC(=O)[C@H](CO)NC(=O)[C@H](CO)NC(=O)[C@@H](NC(=O)[C@H](CC(=O)O)NC(=O)[C@H](CO)NC(=O)[C@@H](NC(=O)[C@H](Cc1ccccc1)NC(=O)[C@@H](NC(=O)CNC(=O)[C@H](CCC(=O)O)NC(=O)C(C)(C)NC(=O)N(N)Cc1c[nH]cn1)[C@@H](C)O)[C@@H](C)O)C(C)C)C(=O)N[C@@H](C)C(=O)N[C@@H](Cc1c[nH]c2ccccc12)C(=O)N[C@@H](CC(C)C)C(=O)N[C@H](C(=O)N[C@@H](CCCNC(=N)N)C(=O)NCC(=O)N[C@@H](CCCNC(=N)N)C(=O)NCC(=O)O)C(C)C`, the remaining peptide was 100% (DPP4; HPLC-UV; Tris-HCl; 0.1 mM, 8 h, pH 7.4, 37 °C, with: DPP4 16 nM).
